Measurements from different studies.
A part holds a random share of what one study measured. Substitutions count along the parent as printed.

Series 1
Target: ABI1, truncated, D143A, DHFR fusion (Arabidopsis thaliana, UniProt P49597)
Technique: DHFR PCA, dose-response
Medium: yeast
Setting: Hill fit, mean, not affinity
With: (+)-ABA, dose series
Reading: lower = more sensitive
Starting sequence: PYL1, truncated, DHFR fusion (Arabidopsis thaliana, UniProt Q8VZS8); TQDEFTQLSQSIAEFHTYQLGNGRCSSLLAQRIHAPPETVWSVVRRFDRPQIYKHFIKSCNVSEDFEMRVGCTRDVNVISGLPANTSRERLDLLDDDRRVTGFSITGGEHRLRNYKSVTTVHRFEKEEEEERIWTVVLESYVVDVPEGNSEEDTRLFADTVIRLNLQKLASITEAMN
Change | ABA EC50 [µM]
E125V | 1.58
S42V | 57.8
G23F | 22.8
V43R | 150
E139K | 150
L156K | 15.6
P146S | 94.5
L28N | 174

Series 2
Target: Sal-like protein 4, full length isoform A (SALL4, Homo sapiens, UniProt Q9UJQ4, residues 1-1053)
Sequence of UniProt Q9UJQ4 (whole entry, looked up): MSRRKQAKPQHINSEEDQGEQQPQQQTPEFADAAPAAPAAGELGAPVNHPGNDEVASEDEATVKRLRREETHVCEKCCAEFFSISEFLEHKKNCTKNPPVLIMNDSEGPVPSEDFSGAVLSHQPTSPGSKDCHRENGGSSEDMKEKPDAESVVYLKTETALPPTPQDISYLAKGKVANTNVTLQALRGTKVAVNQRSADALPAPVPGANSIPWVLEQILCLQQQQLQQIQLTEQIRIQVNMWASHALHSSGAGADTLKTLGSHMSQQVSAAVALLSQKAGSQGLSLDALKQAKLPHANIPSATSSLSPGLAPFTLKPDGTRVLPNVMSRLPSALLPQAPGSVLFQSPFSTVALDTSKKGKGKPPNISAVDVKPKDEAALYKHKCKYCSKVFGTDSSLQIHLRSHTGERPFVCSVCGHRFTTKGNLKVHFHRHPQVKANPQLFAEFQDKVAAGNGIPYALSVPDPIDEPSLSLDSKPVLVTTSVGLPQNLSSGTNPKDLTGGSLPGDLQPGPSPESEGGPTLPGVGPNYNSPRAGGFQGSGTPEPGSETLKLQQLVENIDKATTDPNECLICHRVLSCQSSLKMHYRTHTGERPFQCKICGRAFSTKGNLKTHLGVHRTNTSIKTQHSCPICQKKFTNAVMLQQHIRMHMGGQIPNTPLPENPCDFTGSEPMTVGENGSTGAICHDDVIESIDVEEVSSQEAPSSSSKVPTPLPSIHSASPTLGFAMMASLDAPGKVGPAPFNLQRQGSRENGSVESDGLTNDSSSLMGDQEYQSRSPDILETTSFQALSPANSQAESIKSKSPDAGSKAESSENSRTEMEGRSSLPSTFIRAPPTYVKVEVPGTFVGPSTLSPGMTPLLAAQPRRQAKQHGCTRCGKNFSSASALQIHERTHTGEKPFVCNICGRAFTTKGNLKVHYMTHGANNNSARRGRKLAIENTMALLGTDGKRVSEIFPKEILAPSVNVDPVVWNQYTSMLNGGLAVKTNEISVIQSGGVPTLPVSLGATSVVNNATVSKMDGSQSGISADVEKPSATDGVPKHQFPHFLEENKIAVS
Technique: universal PBM
Molecule type: double-stranded DNA, one strand shown
Medium: in vitro
Concentration: 600 nM
Setting: 8-mer, flanks averaged, mean of replicates
Reading: higher = stronger binding
Oligonucleotide | E-score
AGGAGCTA | -0.132
CCCGGGTC | -0.408
GCCGCGAA | -0.219
GGAACGCA | -0.289
ATCGCGGC | -0.165
TCTTACCA | -0.033
CCTCTCGC | -0.0915
CTAACAGA | 0.0449

Series 3
Target: RING finger protein unkempt homolog, zinc fingers 1-6, GST-SBP tag (UNK, Homo sapiens, UniProt Q9C0B0, residues 30-357)
Sequence of UniProt Q9C0B0 (30-357, looked up): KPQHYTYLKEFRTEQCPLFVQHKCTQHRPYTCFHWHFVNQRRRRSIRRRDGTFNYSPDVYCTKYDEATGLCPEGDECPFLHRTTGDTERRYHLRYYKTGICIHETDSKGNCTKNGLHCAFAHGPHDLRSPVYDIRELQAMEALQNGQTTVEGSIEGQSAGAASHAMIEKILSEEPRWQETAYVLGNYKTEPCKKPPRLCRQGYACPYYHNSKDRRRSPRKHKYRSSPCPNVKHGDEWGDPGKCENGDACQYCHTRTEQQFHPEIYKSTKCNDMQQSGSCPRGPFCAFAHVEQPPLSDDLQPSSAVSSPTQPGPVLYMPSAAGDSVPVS
Technique: RNA Bind-n-Seq
Molecule type: RNA
Medium: in vitro
Concentration: not given
Setting: RNA with constant flanks, human-mouse chimeric sites, ends assumed
Reference: input RNA pool
Reading: higher = stronger binding
Constant ends, left off below: GGGAGUUCUACAGUCCGACGAUC … CAACAGAGGAUUGAGCAUCA
Oligonucleotide | bound/input enrichment [ratio]
UCUGGUCAUACUCGUGCGUAUGGUGUUUGCUUUGUGGACACUUCACUGGGCAAGUUUUUCAUCGGCCAGUUUUCGGAUGACCGCCACUGUUCCAGAUUUAGGACUCUAGUGGCUCACUAU | 0.128
GCGGCAGAAUCAUGGAGGACAUAAUGCACUUGCCCAGAGCGCGCGUCAACGCCAGCAUGUUACCACAAUUCAUCGACCGGCCCGUGUGCUUCGUGGGGAAGCUGGAAAAGAUUCAUCCCA | 0.102
CAGGGCAUCAUCUCUCGUGCUGUUAGACACCUGUUCAAGAGUAUUGAUGAGAAAAAGCACAUAGCAAUUAAAAACGGGCUUCCUGCUCCUGAAUUCAAAGUGAAUGCCCAGUUCCUAGAG | 0.803
AAAUCGUGUGUGUCAAAUAUUGAAAGUGCUUUAUCUACACUCCAGUAUGUAAGCAGUAUAGUAGUUUCUUUAGAGAAUAGGUCAGCCAUUGUAAAGUACAAUGCAAGCUCAGUCACUCCA | 36.6
UGUAGUUUCUUGAUUUAUCAUUUUUCUCUUUUCUUUCUUUCCUUUAGGAAAAGCCUAAAGAUUAGGUUGUAAGAAAAGAAAAUAGAAGCCAUGUUUCACCUGUGUUACAGGUAUUUCGUC | 0.448
GCGGCAGAAUCAUGGAGGACAUAAUGCAGCUCCCCAAAGCGCGCGUCAACGCCAGCAUGCUAGCUCAGUAUAUCGACCGGCCCGUGUGCUUCGUAGGGAAGCUGGAAAAGAUUCAUCCCA | 0.119
CUGGCACUCUAUCAGAUAUAUUAAUUUUUUAAUGUAGAUAAAAUUUCAAAAAUGAAUGGCUACUUUACACGUUUAACUAGGGUUUUACUACAUAUGUGUACAUAUGUAUAUAUAUAUAUA | 7.08
CAGUCCCCGUGUCCCAGUGCAGGACGAUGUGAACAAAAACUCAAAGCGGACCCUCUAUUGUAGUUCUUUUUUUAAAUAAUGUGCUAUUAUUGUUUGUCUUUUUUUUUAAAAGAAAAGAGA | 0.878

Single results of other studies
Starting sequence: viral docking peptide; KGVKRKLFAEDSS
Change | target | test | system | setting | scale | measurement | value
KGVKRKLHAEDSS [F8H] | CCNB1, cyclin fold, Cln2 fusion (human) | yeast growth competition, sequencing | yeast | strong parent motif | reference: not given, higher = stronger binding | normalised enrichment score | -0.00615

A few entries again (series 2):
Oligonucleotide | E-score
CCCGGGTC | -0.408
GCCGCGAA | -0.219
GGAACGCA | -0.289
